Results gathered from unrelated publications.
Compare with care: the assays were run in different laboratories. Several values in a cell are separate wells, animals, samples, runs or records. Numbers after ± are the reported error.

CC(C)CC(O)(CC(C)C)c1cn(C(=O)N2CCCC2)nn1  protein level (mouse T-cells; SILAC proteomics, item: EFHD2; 1 nM, 6 h, unit not given; relative to: DMSO): 0.99
CC(C)C[C@H](NC(=O)[C@H](CC(=O)O)NC(=O)CNC(=O)[C@@H](N)CCCNC(=N)N)C(=O)N[C@@H](C)C(=O)N[C@H](C(=O)N[C@@H](CC(C)C)C(=O)N[C@@H](CCCNC(=N)N)C(=O)N[C@@H](CCC(N)=O)C(=O)N[C@@H](CC(C)C)C(=O)N[C@@H](C)C(=O)N[C@@H](CCC(N)=O)C(=O)N[C@@H](CCC(=O)O)C(=O)N[C@@H](CC(=O)O)C(=O)NCC(=O)N[C@H](C(=O)N[C@H](C(=O)NCC(=O)N[C@H](C(=O)N[C@@H](CCCNC(=N)N)C(=O)NCCOCCOCCOCCOCCOCCOCCOCCOCCOCCOCCOCCOCCC(=O)N[C@@H](CS)C(N)=O)C(C)C)C(C)C)C(C)C)[C@@H](C)O  selectivity ratio (H157 lung squamous carcinoma; cell binding, phage binding, item: output/input phage; 10 min, 37 °C; relative to: control phage): 8.7 ± 4.1
CC[C@H](C)[C@H](NC(=O)[C@H](C)NC(=O)CNC(=O)[C@H](Cc1ccccc1)NC(=O)[C@H](CC(N)=O)NC(=O)[C@H](CC(N)=O)NC(=O)[C@H](CO)NC(=O)[C@H](CO)NC(=O)[C@H](Cc1c[nH]cn1)NC(=O)[C@@H](NC(=O)[C@H](CC(C)C)NC(=O)[C@H](Cc1ccccc1)NC(=O)[C@H](CC(N)=O)NC(=O)[C@H](C)NC(=O)[C@H](CC(C)C)NC(=O)[C@H](CCCNC(=N)N)NC(=O)[C@H](CCC(N)=O)NC(=O)[C@@H](NC(=O)[C@H](C)NC(=O)[C@@H]1CSSC[C@H](NC(=O)[C@@H](N)CCCCN)C(=O)N[C@@H](CC(N)=O)C(=O)N[C@@H]([C@@H](C)O)C(=O)N[C@@H](C)C(=O)N[C@@H]([C@@H](C)O)C(=O)N1)[C@@H](C)O)C(C)C)C(=O)N[C@@H](CC(C)C)C(=O)N[C@@H](CO)C(=O)N[C@@H](CO)C(=O)N[C@H](C(=O)N[C@@H](CC(N)=O)C(=O)N[C@H](C(=O)NCC(=O)N[C@@H](CO)C(=O)N[C@@H](CC(N)=O)C(=O)N[C@H](C(=O)N[C@@H](Cc1ccc(O)cc1)C(N)=O)[C@@H](C)O)C(C)C)[C@@H](C)O  Pearson colocalization coefficient (RIN-m5F; colocalization microscopy, item: lysosomes (LAMP1); 10 µM, 24 h, mostly perinuclear): ~0.5
O=c1n(CCNCCOS(=O)(=O)c2ccccc2)c(=O)n(S(=O)(=O)c2ccccc2)c(=O)n1S(=O)(=O)c1ccccc1  viability (A549; cell growth or viability, MTT; 100 µg/mL, 72 h): 31.2%
O=C(C[Se]C(=O)c1ccccc1)Nc1cccc(C(F)(F)F)c1  mean TGI (NCI60 renal subpanel; total growth inhibition, inhibitor; five-dose): 5.05 µM
O=C1NC2(CC2)COc2ncc(F)cc2[C@H]2COCCN2c2ccn3ncc1c3n2  glucose (Sprague-Dawley rat, female, serum; oral, 2.5 mg/kg/day, 4 weeks daily, end of treatment): 8.29 ± 0.75 mmol/L
CC(C)[C@H](NC(=O)[C@H](CCCNC(=N)N)NC(=O)[C@@H]1CCCN1C(=O)[C@@H](NC(=O)[C@H](C)NC(=O)[C@H](Cc1ccc(O)cc1)NC(=O)[C@H](CCC(N)=O)NC(=O)[C@H](CCCCN)NC(=O)[C@H](CCCNC(=N)N)NC(=O)[C@@H]1CCCN1C(=O)[C@H](CCC(=O)O)NC(=O)[C@@H](NC(=O)[C@H](C)N)[C@@H](C)O)[C@@H](C)O)C(=O)N[C@@H](Cc1ccccc1)C(=O)N[C@@H](Cc1c[nH]c2ccccc12)C(=O)N[C@H](C(=O)N[C@@H](CC(=O)O)C(=O)N[C@@H](C)C(=O)N1CCC[C@H]1C(=O)NCC(=O)NCCOCCOCCOCCOCCOCCOCCOCCOCCOCCOCCOCCOCCC(=O)N[C@@H](CS)C(N)=O)[C@@H](C)O  selectivity ratio (MDA-MB-468 breast cancer; cell binding, phage binding, item: output/input phage; 10 min, 37 °C; relative to: control phage): 0.59 ± 0.42
CCOC(=O)C1(Cc2ccccc2)Oc2cc(F)ccc2N(Cc2ccccc2)C1=O (stereo not drawn)  inhibition (HEK293T; cytotoxicity, CCK-8; 100 µM, 72 h): 0.71 ± 0.23%
[Cl-].[Cl-].[Ru+2].c1ccc(-c2ccccn2)nc1.c1ccc(-c2ccccn2)nc1.c1ccc2cc3nc4c5cccnc5c5ncccc5c4nc3cc2c1  EC50 (SK-MEL-28; cell viability; 1% O2, together with: green light 523 nm, 100 J/cm2): 179 ± 12 µM
O=C(C[Se]C(=O)c1ccccc1Nc1cccc(C(F)(F)F)c1)Nc1cccc(C(F)(F)F)c1  CC50 (NCI60 prostate subpanel (PC-3, DU-145); cytotoxicity, inhibitor; five-dose): 7.39 µM
CC(C)Cc1ccc(C(C)C(=O)[O-])cc1.CC(C)Cc1ccc(C(C)C(=O)[O-])cc1.O.[Cu+2].c1ccncc1.c1ccncc1 (stereo not drawn)  total growth inhibition (TGI) (PC-3; MTT; 48 h): > 100 µM
O=C(C[Se]C(=O)c1ccco1)Nc1cccc(C(F)(F)F)c1  CC50 (NCI60 renal subpanel; cytotoxicity, inhibitor; five-dose): 44.6 µM
C#CCN1C(=O)C(CC#C)(C(=O)OCC)Oc2ccccc21 (stereo not drawn)  inhibition (HEK293T; cytotoxicity, CCK-8; 12.5 µM, 72 h): 0.49 ± 0.33%
O=C(C[Se]C(=O)c1cccs1)Nc1cccc(C(F)(F)F)c1  mean TGI (NCI60 renal subpanel; total growth inhibition, inhibitor; five-dose): 3.31 µM
CC(C)(C)C(=O)OCOP(=O)(OCOC(=O)C(C)(C)C)C1CCCN(O)C1=O (stereo not drawn)  log LC50 (OVCAR-8): > -4 log M
C=CCN1C(=O)C(CC=C)(C(=O)OCC)Oc2cc(F)ccc21 (stereo not drawn)  inhibition (HEK293T; cytotoxicity, CCK-8; 25 µM, 72 h): 0.41 ± 0.19%
CC(=O)NCSC[C@H](NC(=O)[C@@H]1CCCN1C(=O)[C@H](C)NC(=O)[C@@H](NC(=O)CNC(=O)[C@@H](NC(=O)[C@H](Cc1c[nH]c2ccccc12)NC(=O)[C@H](C)NC(=O)CNC(=O)[C@H](CO)NC(=O)[C@H](C)NC(=O)[C@@H]1CCCN1C(=O)[C@H](Cc1c[nH]c2ccccc12)NC(=O)[C@H](C)NC(=O)[C@H](C)NC(=O)[C@@H](N)Cc1ccc(O)cc1)[C@@H](C)O)[C@@H](C)O)C(=O)N[C@@H](CO)C(=O)N[C@@H](C)C(=O)NCC(=O)N[C@H](C(=O)NCCOCCOCCOCCOCCOCCOCCOCCOCCOCCOCCOCCOCCC(=O)N[C@@H](CS)C(N)=O)[C@@H](C)O  selectivity ratio (HCC78; phage binding; relative to: targeting over control phage): 3.8 ± 0.4
O=C(C[Se]C(=O)c1ccc2ccccc2n1)Nc1cccc(C(F)(F)F)c1  CC50 (NCI60 prostate subpanel (PC-3, DU-145); cytotoxicity, inhibitor; five-dose): 6.89 µM
Cc1cc(Oc2nc(N3CC[C@@H](c4ccncc4)C3)ncc2F)[nH]n1  IC50 (A2780; cell proliferation): 16.2 µM
CSCC[C@H](NC(=O)[C@@H](NC(=O)[C@H](CCC(N)=O)NC(=O)[C@H](CO)NC(=O)[C@@H](N)C(C)C)[C@@H](C)O)C(=O)N[C@@H](CCCNC(=N)N)C(=O)N[C@@H](CCC(N)=O)C(=O)N[C@H](C(=O)N[C@@H](C)C(=O)N[C@H](C(=O)N1CCC[C@H]1C(=O)N[C@@H](CC(C)C)C(=O)N[C@@H](CC(C)C)C(=O)N[C@@H](Cc1c[nH]c2ccccc12)C(=O)N[C@@H](Cc1ccccc1)C(=O)N[C@@H](Cc1c[nH]c2ccccc12)C(=O)N[C@H](C(=O)NCC(=O)N[C@@H](CO)C(=O)N[C@@H](CC(C)C)C(=O)NCCOCCOCCOCCOCCOCCOCCOCCOCCOCCOCCOCCOCCC(=O)N[C@@H](CS)C(N)=O)[C@@H](C)O)C(C)C)[C@@H](C)O  selectivity ratio (H2347 lung adenocarcinoma; cell binding, phage binding, item: output/input phage; 10 min, 37 °C; relative to: control phage): 0.79 ± 0.46
COc1ccccc1-c1ccncc1C(=O)Nc1nnc(OCc2ccc(Cl)cc2)s1  colony survival (RPE-1 TP53-/- BRCA1-/-; 2 µM, average of 2 runs; relative to: untreated): 41.5%
O=C(C[Se]C(=O)c1ccccc1Nc1ccccc1)Nc1cccc(C(F)(F)F)c1  CC50 (NCI60 prostate subpanel (PC-3, DU-145); cytotoxicity, inhibitor; five-dose): 6.87 µM
NC(=S)N/N=C/c1ccc(OCc2ccccc2)cc1  catalase activity (OD450) (IMR-32; 500 µg/mL, 24 h; higher = more activity): 0.083 a.u.
Cc1cccc(-c2cccc(C)n2)n1.Cc1cccc(-c2cccc(C)n2)n1.F[P-](F)(F)(F)(F)F.F[P-](F)(F)(F)(F)F.[Ru+2].c1ccc2c(-c3nc4c5cccnc5c5ncccc5c4[nH]3)cccc2c1  EC50 (SK-MEL-28; cell growth or viability, resazurin; dark): 53.8 µM
O=C(O)c1ccc(-c2nc(-c3ccccc3Cl)c3sccn23)cc1  CD61 fluorescence intensity (K562; megakaryocyte differentiation, flow cytometry; 0.01 mM, 24 h; relative to: untreated): 1.01 fold change and 1.04 fold change
Cc1c(Cl)cccc1Nc1ccccc1C(=O)[Se]CC(=O)Nc1cccc(C(F)(F)F)c1  CC50 (NCI60 ovarian subpanel; cytotoxicity, inhibitor; five-dose): 8.33 µM
CSCC[C@H](NC(=O)[C@H](CC(C)C)NC(=O)[C@H](CCC(N)=O)NC(=O)[C@H](C)NC(=O)[C@H](Cc1c[nH]c2ccccc12)NC(=O)[C@H](Cc1ccc(O)cc1)NC(=O)[C@H](CCC(=O)O)NC(=O)[C@H](CC(C)C)NC(=O)[C@H](Cc1ccccc1)NC(=O)[C@@H](NC(=O)[C@H](CC(C)C)NC(=O)[C@H](CCCCN)NC(=O)CCCCCNC(=O)[C@H](CCCCN)NC(=O)[C@H](CCC(N)=O)NC(=O)[C@H](CCSC)NC(=O)[C@H](CC(C)C)NC(=O)[C@]1(C)CCCC=CCCC[C@](C)(NC(=O)[C@H](CC(C)C)NC(=O)[C@H](Cc2ccccc2)NC(=O)[C@@H](NC(=O)[C@H](CC(C)C)NC(=O)[C@H](CCCCN)NC(C)=O)[C@@H](C)O)C(=O)N[C@@H](Cc2ccc(O)cc2)C(=O)N[C@@H](Cc2c[nH]c3ccccc23)C(=O)N[C@@H](C)C(=O)N1)[C@@H](C)O)C(=O)N[C@@H](CCC(N)=O)C(=O)N[C@@H](CCCCN)C(N)=O  inhibition (human tumour cells; cell growth, CCK-8; 16 µM): inhibited

Repeated from above:
CC[C@H](C)[C@H](NC(=O)[C@H](C)NC(=O)CNC(=O)[C@H](Cc1ccccc1)NC(=O)[C@H](CC(N)=O)NC(=O)[C@H](CC(N)=O)NC(=O)[C@H](CO)NC(=O)[C@H](CO)NC(=O)[C@H](Cc1c[nH]cn1)NC(=O)[C@@H](NC(=O)[C@H](CC(C)C)NC(=O)[C@H](Cc1ccccc1)NC(=O)[C@H](CC(N)=O)NC(=O)[C@H](C)NC(=O)[C@H](CC(C)C)NC(=O)[C@H](CCCNC(=N)N)NC(=O)[C@H](CCC(N)=O)NC(=O)[C@@H](NC(=O)[C@H](C)NC(=O)[C@@H]1CSSC[C@H](NC(=O)[C@@H](N)CCCCN)C(=O)N[C@@H](CC(N)=O)C(=O)N[C@@H]([C@@H](C)O)C(=O)N[C@@H](C)C(=O)N[C@@H]([C@@H](C)O)C(=O)N1)[C@@H](C)O)C(C)C)C(=O)N[C@@H](CC(C)C)C(=O)N[C@@H](CO)C(=O)N[C@@H](CO)C(=O)N[C@H](C(=O)N[C@@H](CC(N)=O)C(=O)N[C@H](C(=O)NCC(=O)N[C@@H](CO)C(=O)N[C@@H](CC(N)=O)C(=O)N[C@H](C(=O)N[C@@H](Cc1ccc(O)cc1)C(N)=O)[C@@H](C)O)C(C)C)[C@@H](C)O  Pearson colocalization coefficient (RIN-m5F; colocalization microscopy, item: lysosomes (LAMP1); 10 µM, 24 h, mostly perinuclear): ~0.5
[Cl-].[Cl-].[Ru+2].c1ccc(-c2ccccn2)nc1.c1ccc(-c2ccccn2)nc1.c1ccc2cc3nc4c5cccnc5c5ncccc5c4nc3cc2c1  EC50 (SK-MEL-28; cell viability; 1% O2, together with: green light 523 nm, 100 J/cm2): 179 ± 12 µM
Cc1c(Cl)cccc1Nc1ccccc1C(=O)[Se]CC(=O)Nc1cccc(C(F)(F)F)c1  CC50 (NCI60 ovarian subpanel; cytotoxicity, inhibitor; five-dose): 8.33 µM
O=C(C[Se]C(=O)c1ccco1)Nc1cccc(C(F)(F)F)c1  CC50 (NCI60 renal subpanel; cytotoxicity, inhibitor; five-dose): 44.6 µM
